Results collected from several papers.
± marks the error that the study gave.
Target: Solute carrier organic anion transporter family member 1B1 (SLCO1B1, Homo sapiens, UniProt Q9Y6L6)
One construct used (Q9Y6L6 1-691): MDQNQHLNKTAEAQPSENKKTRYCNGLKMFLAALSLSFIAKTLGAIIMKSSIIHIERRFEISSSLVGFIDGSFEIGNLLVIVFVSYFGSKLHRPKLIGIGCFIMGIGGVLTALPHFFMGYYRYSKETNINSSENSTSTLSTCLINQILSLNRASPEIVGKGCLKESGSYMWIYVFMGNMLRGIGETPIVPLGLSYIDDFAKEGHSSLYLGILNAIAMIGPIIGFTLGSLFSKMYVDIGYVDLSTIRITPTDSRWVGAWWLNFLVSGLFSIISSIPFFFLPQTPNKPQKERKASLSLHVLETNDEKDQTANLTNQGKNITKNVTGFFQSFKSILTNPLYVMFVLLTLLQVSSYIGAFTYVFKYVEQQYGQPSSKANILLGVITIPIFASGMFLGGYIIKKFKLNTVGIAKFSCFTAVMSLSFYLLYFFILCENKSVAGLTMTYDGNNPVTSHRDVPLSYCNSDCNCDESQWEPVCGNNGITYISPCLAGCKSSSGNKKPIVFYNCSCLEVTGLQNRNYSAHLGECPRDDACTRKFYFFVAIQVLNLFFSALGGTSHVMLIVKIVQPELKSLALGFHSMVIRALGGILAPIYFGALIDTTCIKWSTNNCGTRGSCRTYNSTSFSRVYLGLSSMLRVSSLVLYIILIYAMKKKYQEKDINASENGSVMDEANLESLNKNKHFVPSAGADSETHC

C=CC(=O)N1CCC([C@@H]2CCNc3c(C(N)=O)c(-c4ccc(Oc5ccccc5)cc4)nn32)CC1  remaining activity (transport, measured: estradiol-17β-glucuronide uptake; HEK293 transfected; 0.05 µM; relative to: vehicle): 94.8 ± 2.3%
O=C(O)c1cc2cc(O)ccc2n1Cc1ccc(Cl)c(C(F)(F)F)c1  remaining activity (estradiol 17β-glucuronide uptake, inhibitor; HEK293 expressing OATP1B1; 3 µM, together with: [3H]-estradiol 17β-glucuronide; relative to: DMSO control): 1%
CC(=O)c1cc(C(=O)N[C@@H](C)Cn2ccc(-c3ccc(C#N)c(Cl)c3)n2)[nH]n1  IC50 (transporter uptake, inhibitor): > 10000 nM
CC#CC(=O)N1CCC[C@H]1c1nc(-c2ccc(C(=O)Nc3ccccn3)cc2)c2c(N)nccn12  uptake (8-fluorescein-cAMP transport; HEK293 overexpressing SLCO1B1; 10 µM, 30 min, together with: 8-fluorescein-cAMP 25 µM; relative to: DMSO): no effect
CO[C@H]1/C=C/O[C@@]2(C)Oc3c(C)c(O)c4c(O)c(c(/C=N/N5CCN(C)CC5)c(O)c4c3C2=O)NC(=O)/C(C)=C\C=C\[C@H](C)[C@H](O)[C@@H](C)[C@@H](O)[C@@H](C)[C@H](OC(C)=O)[C@@H]1C  remaining activity (transport, inhibitor; HEK293 overexpressing SLCO1B1; 100 µM, together with: estradiol-17β-glucuronide; relative to: vehicle): 0.93 ± 0.83%
O=C(/C=C/c1ccc(O)c2c1[C@H](C(=O)O[C@H](Cc1ccc(O)c(O)c1)C(=O)O)[C@@H](c1ccc(O)c(O)c1)O2)O[C@H](Cc1ccc(O)c(O)c1)C(=O)O  inhibition (transporter uptake, inhibitor; HEK293; 100 µM): > 50%
Cc1ccccc1C(=O)Nc1ccc(C(=O)Nc2ccc(Cl)cc2C(=O)CCC(=O)O)c(C)c1  IC50 (estradiol 17β-glucuronide transport; HEK293 overexpressing OATP1B1): 255 nM
CO[C@H]1/C=C/O[C@@]2(C)Oc3c(C)c(O)c4c(O)c(c(/C=N/N5CCN(C)CC5)c(O)c4c3C2=O)NC(=O)/C(C)=C\C=C\[C@H](C)[C@H](O)[C@@H](C)[C@@H](O)[C@@H](C)[C@H](OC(C)=O)[C@@H]1C  duration of inhibition after washout (transporter uptake, inhibitor; HEK293 expressing SLCO1B1; concentration not given, together with: [3H]estrone-3-sulfate 20 nM): ≥ 40 min
C[C@]12CC[C@@H]3c4ccc(O)cc4CC[C@H]3[C@@H]1CC[C@@H]2O[C@@H]1O[C@H](C(=O)O)[C@@H](O)[C@H](O)[C@H]1O  Km (transporter uptake, substrate): 12.8 µM
O=C(O[C@H]1[C@@H]2C=CO[C@@H](O[C@@H]3O[C@H](CO)[C@@H](O)[C@H](O)[C@H]3O)[C@@H]2[C@@]2(CO)O[C@@H]12)c1ccc(O)cc1  intrinsic clearance (uptake, substrate; HEK293 overexpressing SLCO1B1; 5 min): 0.035 µL/min
